{"data": "Published values gathered from unrelated publications", "note": "Each line is one published result; not all experiments were run side by side. Several values in a cell are separate wells, animals, samples, runs or records. ± gives the spread as reported.", "chain of UniProt P37231 (whole entry, looked up)": "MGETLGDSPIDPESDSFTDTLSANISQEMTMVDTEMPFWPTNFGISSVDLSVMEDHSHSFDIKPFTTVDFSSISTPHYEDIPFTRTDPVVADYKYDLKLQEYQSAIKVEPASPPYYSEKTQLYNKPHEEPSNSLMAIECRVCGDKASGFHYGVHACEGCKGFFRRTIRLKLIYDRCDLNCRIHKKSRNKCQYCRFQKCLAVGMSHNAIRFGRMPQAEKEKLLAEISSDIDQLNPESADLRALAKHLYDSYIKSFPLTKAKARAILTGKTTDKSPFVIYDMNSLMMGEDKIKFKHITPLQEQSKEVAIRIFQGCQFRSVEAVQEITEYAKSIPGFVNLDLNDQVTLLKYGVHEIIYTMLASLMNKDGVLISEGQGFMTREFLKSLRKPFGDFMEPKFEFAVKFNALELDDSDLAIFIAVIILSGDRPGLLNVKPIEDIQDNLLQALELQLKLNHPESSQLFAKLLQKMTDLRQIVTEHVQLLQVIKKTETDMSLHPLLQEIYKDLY"}
{"Structure (SMILES)": "Cc1cccc2c1N(C(=O)n1ccnn1)CC2", "target or system": "Arabidopsis thaliana", "system": "wild type, seeds", "conditions": "1 µM, high ambient temperature", "quantity": "germination rate", "value": "7.5% and 92.3% and 86.2% and 81.5% and 85.2% and 6.3%"}
{"Structure (SMILES)": "O=c1[nH]cc(C(c2ccccc2Br)c2c[nH]c(=O)[nH]c2=O)c(=O)[nH]1", "target or system": "Human immunodeficiency virus 1", "assay": "viral replication, inhibitor, ELISA", "conditions": "1 µg/mL", "quantity": "inhibition", "value": "65%"}
{"Structure (SMILES)": "Nc1nc(-c2ccccc2)nc2[nH]nc(Nc3c(F)cccc3F)c12", "target or system": "rhinovirus B42", "assay": "viral cytopathic effect", "system": "HeLa", "quantity": "IC50", "value": "480 nM"}
{"Structure (SMILES)": "COc1cccc2c(-c3ccc(O)c4c3C[C@@H](C)N[C@@H]4C)c(C)cc(O)c12", "target or system": "Plasmodium falciparum", "assay": "asexual parasite proliferation, SYBR Green I fluorescence", "system": "7G8", "quantity": "IC50", "value": "10.2 ± 4.6 nM"}
{"Structure (SMILES)": "O=Cc1cccc(C(c2c[nH]c(=O)[nH]c2=O)c2c[nH]c(=O)[nH]c2=O)c1", "target or system": "Human immunodeficiency virus 1", "assay": "viral replication, inhibitor, ELISA", "conditions": "1 µg/mL", "quantity": "inhibition", "value": "7%"}
{"Structure (SMILES)": "Oc1ccc(-c2cccc3ccccc23)c2c1C=NCC2", "target or system": "Plasmodium falciparum", "assay": "parasite growth, SYBR Green", "system": "NF54", "conditions": "blood stage", "quantity": "IC50", "value": "1420 nM"}
{"Structure (SMILES)": "Nc1nc(-c2ccccc2)nc2[nH]nc(Nc3cccc(F)c3F)c12", "target or system": "rhinovirus B42", "assay": "viral cytopathic effect", "system": "HeLa", "quantity": "IC50", "value": "20 nM"}
{"Structure (SMILES)": "C=C(C)[C@H](O)COc1ccc(CCO)cc1", "target or system": "Zika virus", "assay": "viral replication, CCK-8", "system": "Vero C1008", "conditions": "10 µM, 96 h", "quantity": "inhibition", "value": "0%"}
{"Structure (SMILES)": "Nc1nc(-c2ccncc2)nc2[nH]nc(Nc3ccc(F)cc3)c12", "target or system": "rhinovirus B42", "assay": "viral cytopathic effect", "system": "HeLa", "quantity": "IC50", "value": "1250 nM"}
{"Structure (SMILES)": "CC(C)Cn1cc(Cc2cccc(OC(C)(C)C(=O)O)c2)c2cc(F)c(C(=O)N[C@@H](C)c3cccc(C(C)(C)C)c3)cc21", "target or system": "PPARG (Homo sapiens, UniProt P37231)", "assay": "ligand displacement, TR-FRET", "quantity": "IC50", "value": "11.7 nM"}
{"Structure (SMILES)": "COc1cc(O)c(-c2cc(-c3cc(-c4c(O)cc(OC)c5c4C[C@@H](C)N[C@@H]5C)c4cc(C)cc(OC)c4c3O)c(O)c3c(OC)cc(C)cc23)c2c1[C@@H](C)N[C@H](C)C2", "target or system": "Plasmodium falciparum", "assay": "asexual parasite growth, SYBR Green I", "system": "clinical isolate SB_04, Malawi", "quantity": "IC50", "value": "49.2 ± 2.1 nM"}
{"Structure (SMILES)": "CCCCCCCCCC(=O)N[C@@H](Cc1c[nH]c2ccccc12)C(=O)N[C@H](CC(N)=O)C(=O)N[C@@H](CC(=O)O)C(=O)N[C@@H]1C(=O)NCC(=O)N[C@@H](CCCNC(=O)OC2/C=C/CCCCC2)C(=O)N[C@@H](CC(=O)O)C(=O)N[C@H](C)C(=O)N[C@@H](CC(=O)O)C(=O)NCC(=O)N[C@H](CO)C(=O)N[C@@H]([C@H](C)CC(=O)O)C(=O)N[C@@H](CC(=O)c2ccccc2N)C(=O)O[C@@H]1C (stereo partly drawn)", "target or system": "Staphylococcus aureus", "assay": "planktonic bacterial growth, isothermal microcalorimetry", "system": "MSSA", "conditions": "1.5 µg/mL, 24 h, 37 °C, with: TAG hydrogel", "quantity": "peak heat flow time", "value": "0 h"}
{"Structure (SMILES)": "Cc1cccc(Nc2n[nH]c3nc(-c4ccccc4)nc(N)c23)c1", "target or system": "rhinovirus B42", "assay": "viral cytopathic effect", "system": "HeLa", "quantity": "IC50", "value": "160 nM"}
{"Structure (SMILES)": "CCCOC(=O)N1c2cc(CNC)ccc2[C@H](NC(=O)C(=O)Nc2ccc(Cl)c(F)c2)[C@H]1CNC(=N)N", "target or system": "HIV-1", "assay": "pseudovirus infection, Env pseudovirus neutralisation", "system": "TZM-bl, clade B", "quantity": "IC80", "value": "107 nM"}
{"Structure (SMILES)": "Nc1nc(-c2ccccc2)nc2[nH]nc(Nc3ccc(F)cc3F)c12", "target or system": "coxsackievirus B3", "assay": "viral cytopathic effect", "system": "HeLa", "quantity": "IC50", "value": "120 nM"}
{"Structure (SMILES)": "Cc1c(Cc2cc(F)cc(OC(C)(C)C(=O)O)c2)c2ccc(C(=O)N[C@@H](C)c3cc(F)cc(C(C)(C)C)c3)cc2n1CC(C)C", "target or system": "Peroxisome proliferator-activated receptor gamma, ligand-binding domain (PPARG, Homo sapiens, UniProt P37231)", "assay": "reporter gene, luciferase reporter", "system": "HEK293T, Gal4-PPARγ LBD", "quantity": "IC50", "value": "220 nM"}
{"Structure (SMILES)": "Cc1ccc(Nc2n[nH]c3nc(-c4ccc(F)cc4)nc(N)c23)cc1", "target or system": "coxsackievirus B3", "assay": "viral cytopathic effect", "system": "HeLa", "quantity": "IC50", "value": "31200 nM"}
{"Structure (SMILES)": "O=C(O)c1cccc(O)c1", "target or system": "Streptomyces coelicolor", "assay": "RT-PCR", "conditions": "2 mM, 1 h", "quantity": "pcaH mRNA level", "value": "increased"}
{"Structure (SMILES)": "CC[C@H](C)[C@@H]1NC(=O)[C@@H]([C@@H](C)O)NC(=O)CNC(=O)[C@H](CC(=O)O)NC(=O)CNC(=O)[C@H](CC(=O)O)NC(=O)CNC(=O)[C@H]2CCCCN2C(=O)[C@@H](NC(=O)[C@H](CC(=O)O)NC(=O)/C=C/CCCCCCCCCC(C)C)CNC(=O)[C@@H]2CCCN2C1=O", "target or system": "Staphylococcus simulans", "assay": "broth microdilution", "system": "22, Mueller-Hinton broth, Mg2+ 10 mg/L", "conditions": "16 h, 30 °C, with: Ca2+ 10 mM", "quantity": "MIC", "value": "2 µg/mL"}
{"Structure (SMILES)": "CC[C@H](C)[C@H](NC(=O)[C@H](Cc1ccc(O)cc1)NC(=O)[C@H](CCC(=O)O)NC(=O)CNC(=O)[C@H](CCC(=O)O)NC(=O)[C@H](CCCCN)NC(=O)[C@H](CCCCN)NC(=O)[C@H](CC(=O)O)NC(=O)[C@H](Cc1c[nH]cn1)NC(=O)[C@H](Cc1c[nH]cn1)NC(=O)[C@H](Cc1c[nH]cn1)NC(=O)[C@H](Cc1c[nH]cn1)NC(=O)[C@H](Cc1c[nH]cn1)NC(=O)[C@H](Cc1c[nH]cn1)NC(=O)[C@H](Cc1c[nH]cn1)NC(=O)[C@H](Cc1c[nH]cn1)NC(=O)[C@H](Cc1c[nH]cn1)NC(=O)[C@@H](N)Cc1c[nH]cn1)C(=O)N[C@@H](CCCCN)C(=O)N[C@@H](CC(C)C)C(=O)N[C@@H](CCCCN)C(=O)N[C@H](C(=O)N[C@H](C(=O)NCC(=O)N[C@@H](CCC(N)=O)C(=O)N[C@@H](CC(=O)O)C(=O)N[C@@H](CO)C(=O)N[C@@H](CO)C(=O)N[C@@H](CCC(=O)O)C(=O)N[C@H](C(=O)N[C@@H](Cc1c[nH]cn1)C(=O)N[C@@H](Cc1ccccc1)C(=O)N[C@@H](CCCCN)C(=O)N[C@H](C(=O)N[C@@H](CCCCN)C(=O)N[C@@H](CCSC)C(=O)N[C@H](C(=O)N[C@H](C(=O)N[C@@H](Cc1c[nH]cn1)C(=O)N[C@@H](CC(C)C)C(=O)N[C@@H](CCCCN)C(=O)N[C@@H](CCCCN)C(=O)N[C@@H](CC(C)C)C(=O)N[C@@H](CCCCN)C(=O)N[C@@H](CCC(=O)O)C(=O)N[C@@H](CO)C(=O)N[C@@H](Cc1ccc(O)cc1)C(=O)N[C@@H](CS)C(=O)N[C@@H](CCC(N)=O)C(=O)N[C@@H](CCCNC(=N)N)C(=O)N[C@@H](CCC(N)=O)C(=O)O)[C@@H](C)O)[C@@H](C)O)C(C)C)[C@@H](C)CC)[C@@H](C)CC)C(C)C", "target or system": "Drosophila melanogaster", "assay": "immunoblot", "system": "head", "conditions": "60 µM, normalised to β-actin, unit not given", "scale": "baseline: untreated", "quantity": "TH level mean difference", "value": -0.473}
{"Structure (SMILES)": "C=C(NC(=O)c1csc(-c2nc3c(cc2O)-c2nc(cs2)C(=O)NC(C(C)O)C(=O)NC(=C(C)OC)c2nc(cs2)C(=O)NC2c4nc(cs4)C(=O)NC(COC(=O)c4c5c6c(cccc6n4O)COC(=O)C(OC4CC(C)(O)C(N(C)C)C(C)O4)C2OC5)c2nc-3cs2)n1)C(N)=O (stereo not drawn)", "target or system": "Staphylococcus aureus", "system": "MRSA, 10 isolates", "conditions": "serum 50%", "quantity": "MIC50", "value": "0.0625 µg/mL"}
{"Structure (SMILES)": "CC(C)(C)NCC(SS(=O)(=O)O)c1ccccc1 (stereo not drawn)", "target or system": "Schistosoma mansoni", "assay": "perfusion day 52", "system": "infected Swiss Webster mice", "conditions": "600 mg/kg single dose, 1248 h, dosed day 7 post-infection", "quantity": "liver weight", "value": "3.99 g"}
{"Structure (SMILES)": "CN(C)CCCSC(=S)N1CCN(C(=O)/C=C/c2coc3ccccc3c2=O)CC1", "target or system": "Pepper mild mottle virus", "assay": "inactivation activity", "system": "host plant", "conditions": "500 µg/mL", "quantity": "inhibition", "value": "67% and 75% and 71%"}
{"Structure (SMILES)": "CC1=CC(OC=C2C(=O)OC3c4ccccc4CC23)OC1=O (racemic)", "target or system": "Striga hermonthica", "assay": "seed germination, stimulant", "quantity": "EC50", "value": "1.5 nM"}
{"Structure (SMILES)": "Cc1ncsc1-c1ccc(CNC(=O)[C@@H]2C[C@@H](O)CN2C(=O)[C@@H](NC(=O)CN2CCN(C3CN(CCNC(=O)C[C@@H]4N=C(c5ccc(Cl)cc5)c5c(sc(C)c5C)-n5c(C)nnc54)C3)CC2)C(C)(C)C)cc1", "target or system": "Spodoptera frugiperda", "assay": "degrader, targeted LC-MS, refers to: BRD3", "system": "Sf9", "conditions": "1 µM", "quantity": "protein level", "value": "10.8% and 12.4% and 11.3%"}
{"Structure (SMILES)": "O=c1[nH]cc(C(c2ccc(C(F)(F)F)cc2)c2c[nH]c(=O)[nH]c2=O)c(=O)[nH]1", "target or system": "Human immunodeficiency virus 1", "assay": "viral replication, inhibitor, ELISA", "conditions": "1 µg/mL", "quantity": "inhibition", "value": "11%"}
{"Structure (SMILES)": "Cc1ccc(Nc2n[nH]c3nc(-c4cccc(F)c4)nc(N)c23)cc1", "target or system": "rhinovirus B42", "assay": "viral cytopathic effect", "system": "HeLa", "quantity": "IC50", "value": "80 nM"}
{"Structure (SMILES)": "COC1CN([C@H]2CC[C@H]([C@@]3(C)Oc4c(Cl)cc(C(=O)NCc5c(SC)cc(C)[nH]c5=O)c(C)c4O3)CC2)C1", "assay": "RNA-seq, refers to: LETM2", "system": "human, whole blood", "conditions": "dose not given, 24 h", "scale": "baseline: pretreatment baseline", "quantity": "log2 fold change", "value": 1.17}
{"Structure (SMILES)": "Nc1nc(-c2ccccc2)nc2[nH]nc(Nc3cccnc3)c12", "target or system": "rhinovirus B42", "assay": "viral cytopathic effect", "system": "HeLa", "quantity": "IC50", "value": "1030 nM"}
{"Structure (SMILES)": "Cc1cc(C(=O)N[C@@H](CC(=O)NC(C)(C)C)C(=O)NCCNC(=O)c2cc(-c3ccccc3)ccn2)no1", "target or system": "Plasmodium falciparum", "assay": "male gamete activation", "system": "NF54", "conditions": "48 h", "quantity": "EC50", "value": "190 nM"}
